Results pooled from the literature.
Compare with care: the assays were run in different laboratories. ± gives the spread as reported. In brackets after ≈: the same amount, converted by molar mass.
Chain of UniProt P41146 (whole entry, looked up): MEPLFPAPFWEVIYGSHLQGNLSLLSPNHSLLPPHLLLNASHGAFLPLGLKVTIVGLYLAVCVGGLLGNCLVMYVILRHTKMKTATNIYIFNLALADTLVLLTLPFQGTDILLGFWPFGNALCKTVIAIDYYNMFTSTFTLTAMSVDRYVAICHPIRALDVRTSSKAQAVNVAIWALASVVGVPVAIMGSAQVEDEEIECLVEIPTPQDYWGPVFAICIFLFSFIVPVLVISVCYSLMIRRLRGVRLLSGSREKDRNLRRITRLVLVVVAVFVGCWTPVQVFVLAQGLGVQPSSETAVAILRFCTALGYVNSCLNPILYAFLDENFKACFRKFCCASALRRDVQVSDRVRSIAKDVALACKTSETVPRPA
Chain of UniProt Q9ULI0 (whole entry, looked up): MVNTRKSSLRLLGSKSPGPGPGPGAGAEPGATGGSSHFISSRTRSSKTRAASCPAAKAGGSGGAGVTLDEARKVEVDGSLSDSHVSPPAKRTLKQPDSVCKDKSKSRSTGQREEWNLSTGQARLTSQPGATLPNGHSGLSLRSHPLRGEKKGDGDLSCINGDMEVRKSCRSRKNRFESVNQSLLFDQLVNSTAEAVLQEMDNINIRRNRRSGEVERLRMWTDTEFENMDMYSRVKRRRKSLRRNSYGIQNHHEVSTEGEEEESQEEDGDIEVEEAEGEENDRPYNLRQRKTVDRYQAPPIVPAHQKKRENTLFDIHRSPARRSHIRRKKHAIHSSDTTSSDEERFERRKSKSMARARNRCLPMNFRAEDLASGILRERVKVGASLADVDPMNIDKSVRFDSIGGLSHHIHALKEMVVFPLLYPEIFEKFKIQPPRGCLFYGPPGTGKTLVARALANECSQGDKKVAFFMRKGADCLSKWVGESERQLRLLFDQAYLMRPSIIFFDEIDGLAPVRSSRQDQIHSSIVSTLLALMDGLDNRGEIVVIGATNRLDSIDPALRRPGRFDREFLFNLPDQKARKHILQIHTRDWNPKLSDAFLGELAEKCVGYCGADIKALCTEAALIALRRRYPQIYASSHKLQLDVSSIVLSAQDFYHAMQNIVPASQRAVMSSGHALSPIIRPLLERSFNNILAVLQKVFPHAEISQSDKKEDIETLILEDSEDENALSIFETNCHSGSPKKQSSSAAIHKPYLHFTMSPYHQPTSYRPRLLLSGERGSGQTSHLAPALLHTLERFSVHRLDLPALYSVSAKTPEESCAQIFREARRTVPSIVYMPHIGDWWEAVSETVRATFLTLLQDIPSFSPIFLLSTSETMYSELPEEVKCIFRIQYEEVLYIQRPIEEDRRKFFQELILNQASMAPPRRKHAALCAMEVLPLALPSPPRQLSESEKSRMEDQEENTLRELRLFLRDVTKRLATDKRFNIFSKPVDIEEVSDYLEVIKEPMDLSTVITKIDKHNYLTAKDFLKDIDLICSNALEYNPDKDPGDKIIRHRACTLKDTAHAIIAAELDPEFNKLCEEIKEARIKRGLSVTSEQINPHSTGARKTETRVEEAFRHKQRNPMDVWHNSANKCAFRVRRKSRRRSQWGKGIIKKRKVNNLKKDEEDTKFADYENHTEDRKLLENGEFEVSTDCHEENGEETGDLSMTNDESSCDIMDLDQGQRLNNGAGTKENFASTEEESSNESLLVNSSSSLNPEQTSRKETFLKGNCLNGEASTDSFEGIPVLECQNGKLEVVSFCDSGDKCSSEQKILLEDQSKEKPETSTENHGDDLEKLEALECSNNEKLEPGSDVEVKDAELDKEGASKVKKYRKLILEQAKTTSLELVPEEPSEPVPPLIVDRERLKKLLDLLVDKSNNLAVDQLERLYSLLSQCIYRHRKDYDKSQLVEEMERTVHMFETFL

`Aβ40, N-terminal Atto 488`: “mean oligomer size” 2.55 ± 0.03 N¯phot,mon (itself; single-molecule fluorescence burst analysis; 10 µM, pH 7.5, 37 °C, early aggregation, labeled peptide alone, before growth phase).
`Cj1438c (Campylobacter jejuni, UniProt Q0P8H6)` gave a kcat/Km of 62000 ± 5000 M⁻¹ s⁻¹ (Nc1ncnc2c1ncn2[C@@H]1O[C@H](COP(=O)(O)OP(=O)(O)OP(=O)(O)O)[C@@H](O)[C@H]1O; steady-state kinetics; pH 8, 25 °C, apparent).
The EC50 of `nociceptin` is reported as 0.00019 µM (OPRL1 (Homo sapiens, UniProt P41146); cAMP, agonist, HitHunter cAMP; CHO-K1).
Under “mean oligomer size”, `Aβ42, N-terminal Atto 488` is recorded as 3.5 ± 0.24 N¯phot,mon (itself; single-molecule fluorescence burst analysis; 10 µM, pH 7.5, 37 °C, early aggregation, labeled peptide alone, before growth phase).
With `dmhA K162M (Campylobacter jejuni)` the Km was 55 µM (Nc1nc2c(ncn2[C@@H]2O[C@H](COP(=O)(O)OP(=O)(O)O[C@H]3O[C@H]([C@H](O)CO)[C@@H](O)[C@H](O)[C@@H]3O)[C@@H](O)[C@H]2O)c(=O)[nH]1; steady-state kinetics; pH 7.5, 30 °C).
CC[C@H](C)[C@H](NC(=O)[C@H](CCCCN)NC(=O)[C@H](CCC(N)=O)NC(=O)[C@H](Cc1ccccc1)NC(=O)[C@@H](NC(=O)[C@H](CCCCN)NC(=O)[C@H](CCCCN)NC(=O)[C@H](CC(C)C)NC(=O)[C@H](C)NC(=O)[C@H](CC(N)=O)NC(=O)[C@@H](N)CC(C)C)C(C)C)C(=O)N[C@@H](Cc1c[nH]cn1)C(=O)N[C@@H](CCC(=O)O)C(=O)N[C@@H](C)C(N)=O gave an MIC of 16 µM (≈ 26.2 µg/mL) (Escherichia coli; CCARM 1229, resistant; 18 h, 37 °C).
`dmhA Y300F (Campylobacter jejuni)` has a kcat/Km of 5600 ± 600 M⁻¹ s⁻¹ (Nc1nc2c(ncn2[C@@H]2O[C@H](COP(=O)(O)OP(=O)(O)O[C@H]3O[C@H]([C@H](O)CO)[C@@H](O)[C@H](O)[C@@H]3O)[C@@H](O)[C@H]2O)c(=O)[nH]1; steady-state kinetics; pH 7.5, 30 °C).
`H2AX fragment, acetyl K9, C-terminal amide` gave a Kd of 90 µM (ATAD2B 953-1085 (Homo sapiens, UniProt Q9ULI0); ITC).

A few entries again:
`Aβ40, N-terminal Atto 488`: “mean oligomer size” 2.55 ± 0.03 N¯phot,mon (itself; single-molecule fluorescence burst analysis; 10 µM, pH 7.5, 37 °C, early aggregation, labeled peptide alone, before growth phase).
